Results pooled from the literature.
Each line is one published result; not all experiments were run side by side. “And” joins repeats or separate records; there may be more than shown. ± gives the spread as reported.

Structure (SMILES)	cell line	test	setting	how to read	endpoint	result
CN1CC[C@]23c4c5ccc(O)c4O[C@H]2[C@@H](O[C@@H]2O[C@H](C(=O)O)[C@@H](O)[C@H](O)[C@H]2O)C=C[C@H]3[C@H]1C5	MDCK II		1.0 µg/mL, 100 min, DMEM buffer		Papp	2.01 ± 0.06 ×10⁻⁶ cm/s
COc1cc(-c2c(C#N)c(N)nc3c2c(C)nn3-c2ccc(F)cc2)ccc1O	MDCK				CC50	45.8 µM and 48.3 µM
CC(N)C12CC3CC(CC(C3)C1)C2 (centres unmarked)	MDCK	cell morphology			minimum cytotoxic concentration	> 500 µM
CC(N)C12CC3CC(CC(C3)C1)C2 (centres unmarked)	MDCK	microscopy, altered cell morphology			minimum cytotoxic concentration	≥ 500 µM
CCC(CC)O[C@@H]1C=C(C(=O)O)C[C@H](N)[C@H]1NC(C)=O	MDCK	cell morphology			minimum cytotoxic concentration	> 100 µM
CCCCOc1ccc(Nc2cn(C3C=CC(O)C3)c(=O)n(CCCn3c(=O)c(C)cn(C4CC(N=[N+]=[N-])C(CO)O4)c3=O)c2=O)cc1 (centres unmarked)	MT4	cell growth or viability			CC50	47 µM
CO[C@H]1/C=C/O[C@@]2(C)Oc3c(C)c(O)c4c(O)c(c(/C=N/N5CCN(C6CCCC6)CC5)c(O)c4c3C2=O)NC(=O)/C(C)=C\C=C\[C@H](C)[C@H](O)[C@@H](C)[C@@H](O)[C@@H](C)[C@H](OC(C)=O)[C@@H]1C	mouse cells		50 µg/mL, 24 h		viability	< 60%
Cc1ccc(-n2nc(C)c3c(-c4ccc(O)c(O)c4)c(C#N)c(N)nc32)cc1C	MDCK				CC50	39.3 µM and 39 µM
Cc1ncc2n1-c1ccc(Cl)cc1C(c1ccccc1F)=NC2	Caco-2 clone P27.7		3 µM, pH 7.4, with or without 25% cranberry juice	apical to basolateral	Papp	> 10 ×10⁻⁶ cm/s
CC(=O)N[C@H]1[C@H]([C@H](O)[C@H](O)CO)OC(C(=O)O)=C[C@@H]1N=C(N)N	MDCK	microscopy, altered cell morphology			minimum cytotoxic concentration	> 100 µM
CCCCCCCCCCc1cn(Cc2cn([C@H]3C[C@H](O)[C@@H](COC(=O)OC[C@H]4O[C@@H](n5cc(C)c(=O)[nH]c5=O)C[C@@H]4N=[N+]=[N-])O3)c(=O)[nH]c2=O)nn1	MT4	cell growth or viability			CC50	89.9 µM

A few entries again:
Structure (SMILES)	cell line	test	setting	how to read	endpoint	result
CO[C@H]1/C=C/O[C@@]2(C)Oc3c(C)c(O)c4c(O)c(c(/C=N/N5CCN(C6CCCC6)CC5)c(O)c4c3C2=O)NC(=O)/C(C)=C\C=C\[C@H](C)[C@H](O)[C@@H](C)[C@@H](O)[C@@H](C)[C@H](OC(C)=O)[C@@H]1C	mouse cells		50 µg/mL, 24 h		viability	< 60%
Cc1ccc(-n2nc(C)c3c(-c4ccc(O)c(O)c4)c(C#N)c(N)nc32)cc1C	MDCK				CC50	39.3 µM and 39 µM
